{"data": "Published values of several laboratories", "note": "A part holds a random share of what one study measured. Positions count from the first letter of the parent shown."}
{"data": "Set 1", "target": "RING finger protein unkempt homolog, zinc fingers 1-6, GST-SBP tag (UNK, Homo sapiens, UniProt Q9C0B0, residues 30-357)", "technique": "RNA Bind-n-Seq", "form": "RNA", "matrix": "in vitro", "concentration": "not given", "setting": "RNA with constant flanks, human and mouse sites, ends assumed", "baseline": "input RNA pool", "reading": "higher = stronger binding", "chain of UniProt Q9C0B0 (30-357, looked up)": "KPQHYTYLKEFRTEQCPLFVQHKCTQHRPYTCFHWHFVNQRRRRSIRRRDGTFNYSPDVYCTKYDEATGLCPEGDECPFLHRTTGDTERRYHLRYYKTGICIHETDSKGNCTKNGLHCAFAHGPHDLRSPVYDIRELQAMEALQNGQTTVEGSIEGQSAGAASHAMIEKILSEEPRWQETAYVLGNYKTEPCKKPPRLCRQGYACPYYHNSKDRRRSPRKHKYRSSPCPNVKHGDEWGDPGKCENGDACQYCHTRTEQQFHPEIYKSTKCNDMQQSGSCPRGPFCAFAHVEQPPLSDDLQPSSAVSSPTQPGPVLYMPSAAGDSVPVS"}
{"Oligonucleotide": "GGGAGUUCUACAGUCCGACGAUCUCAGAGCAAAAUCCAGCUGCUUCUUAUUAUAAUGUAGAUGUAUUAAAGUAUCAGGUAUCAUCAAAUGGUAUUCAGUCCACUCCUCUGAAUCUUGCAACAUACUGGAAAUGUAGUGCUAGCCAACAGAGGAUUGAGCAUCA", "bound/input enrichment [ratio]": 1.05}
{"Oligonucleotide": "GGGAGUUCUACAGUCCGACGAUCGAGUUUAGUUAACUUAUAGUCAGCACAUAGUAGUAAGUAUGUUUAUCCCUGUGUUCUCUAACUAGGAAGUCUGGCUUUAAAGGUUUUUUAAAGUUUCCUCUAAUAUUUUGAUCAAAGGUCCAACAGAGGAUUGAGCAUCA", "bound/input enrichment [ratio]": 3.29}
{"Oligonucleotide": "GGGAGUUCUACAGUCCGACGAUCGCUGUGUCUUUGACUCUUGAUCAGAGCCAGUCACAGGCUUCUUUGGAAGCAGUAGAAGUCCCUUCAAUGGCCUCAUCUUGGGGUGGGCCACAUUUUUCUCCAGAACAUAAAGAACUGUCUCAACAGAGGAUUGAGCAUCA", "bound/input enrichment [ratio]": 0.128}
{"Oligonucleotide": "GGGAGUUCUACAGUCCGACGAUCAUGUCACAGUGUUAGCACCCUGCAUGGAUGUGGUCAAAAUAUCAUUCAAGUUGUACUUCCUAGUUUUUAUCAUCAUACUACUAUGUCAUAUGAUUUUCAGACUAAUUUAACAUGAGAAAUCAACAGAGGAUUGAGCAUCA", "bound/input enrichment [ratio]": 0.699}
{"Oligonucleotide": "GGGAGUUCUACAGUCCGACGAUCUAAGGACUUCCCAGUGGUCUCAUGGUGACAACUGUCCCUCCUUUGAGUGAAGCCACAGAUGCCAGGCAGGUUCUAUUCUCUGCUACAGGCUAUGCCCUAGACGCUCUUGAGUAACUUUAGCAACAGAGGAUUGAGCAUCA", "bound/input enrichment [ratio]": 0.25}
{"Oligonucleotide": "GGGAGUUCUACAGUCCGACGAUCACGCAGUUUCCCCGAUUUCCUUCUCUCAGCCUGAAGUUCUAGAUCCUUUCGGUUUCCUCCUUAGUCCCUCCAAGGUACUUAACCCCUUUUUGCAGUUUGGACUUUGAGAUUGUGAAUCUCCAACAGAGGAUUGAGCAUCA", "bound/input enrichment [ratio]": 0.391}
{"Oligonucleotide": "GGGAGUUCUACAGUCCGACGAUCGAAGAAAGUGAAACUGAUUCCAGCUGUUCUACACCUCUUCGGUUCAAUGAGUCCUUUAGCUUAUCUCAAGGGUUGCUGCAGUUGGAAAUGCUGCAAGAAAAGCUCAAGGAACUGGAAGAACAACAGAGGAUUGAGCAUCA", "bound/input enrichment [ratio]": 0.227}
{"Oligonucleotide": "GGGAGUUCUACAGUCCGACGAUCGCUGGAGAGGACUCAGCUCUGGGAGCUGAGCUCUGCGAGGAGACCCCUGUGAAUGACAACUCAUCCAUUGUGGUACGCAUCGCACCUGAGGAAAGGCAGAAAUAUGAGGAAGAGAUCCGCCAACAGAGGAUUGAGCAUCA", "bound/input enrichment [ratio]": 0.186}
{"data": "Set 2", "target": "RNA binding protein fox-1 homolog 2, RRM domain, GST-SBP tag (RBFOX2, Homo sapiens, UniProt O43251-10, residues 100-194)", "technique": "RNA Bind-n-Seq", "form": "RNA", "matrix": "in vitro", "concentration": "365 nM", "setting": "natural RNA segment, single round, ends assumed", "baseline": "no-protein control", "reading": "higher = stronger binding", "Residues (chain)": "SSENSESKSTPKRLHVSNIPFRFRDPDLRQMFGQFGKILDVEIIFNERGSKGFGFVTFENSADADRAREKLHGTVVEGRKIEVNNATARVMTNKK"}
{"Oligonucleotide": "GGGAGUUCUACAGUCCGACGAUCUCUGCUUUAAUUUCAUGAAAAGAUUAUGAUCUCAGAAAUUGUAUCUUAGUUGGUAUCAACCAAAUGGAGUGACUUAGUGUACAUGAAAGCGUAAAGAGGAUGUGUGGCAUUGGAAUUCUCGGGUGCCAA", "RBNS enrichment (R)": 0.465}
{"Oligonucleotide": "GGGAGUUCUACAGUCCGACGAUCACCCUAUCUAUGUGGCUUACAACAUUAGCCAGCACUGGAGGGACCGCAGGGAAGACCUGUGGCUAGGAGCAGGCUUUCAGCUGACAUGAAGAUGGCCCCCGCACAGCCUUUGGAAUUCUCGGGUGCCAA", "RBNS enrichment (R)": 0.338}
{"Oligonucleotide": "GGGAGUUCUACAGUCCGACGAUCAAUAAAUUUAUUCAUUAUAGAUAUUUGCGCCUGCUCUGUUUACUUGGAGGAAAAAGCACCCGUUGAGAACAAACAGACCUCAAUAAACAAGAAUAAUCAUGUGACCAUGGUGGAAUUCUCGGGUGCCAA", "RBNS enrichment (R)": 0.944}
{"Oligonucleotide": "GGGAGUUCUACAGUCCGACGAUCUGGUGUGCAUGGGCACAUGUACUGACUAUGACUGUCGGUGUGUGUUGUUAUACAGUCCAGGAACUGGUAAGUGCCCUCACCAGCGAGCAUGGCAGGUAGCUUCACUCAGUUGGAAUUCUCGGGUGCCAA", "RBNS enrichment (R)": 1.33}
{"Oligonucleotide": "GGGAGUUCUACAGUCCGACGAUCACUGAGAGAAGGUGAAAUAAAGCCAUAUUUAGUAUACCAGAGAAGGUAGAUUUUAAGAAUGGUCUCAGUGUUAAUACUGAGAAAAAGUCCUGUCAGUUCAGAAAAAAUGUUGGAAUUCUCGGGUGCCAA", "RBNS enrichment (R)": 0.367}
{"Oligonucleotide": "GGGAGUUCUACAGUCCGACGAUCCAGCUUCUAGCUGGUUCUCUAUUAUCCUGGUAAUAUUGUUUCUCAGCUCUGAAAUUUGAAAGUCUACGAAGAAAGCCUGGGUUCAUCAGCUGCCCAGCCCCACCUCUCCAUGGAAUUCUCGGGUGCCAA", "RBNS enrichment (R)": 0.189}
{"Oligonucleotide": "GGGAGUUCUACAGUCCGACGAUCAGACUUGGCUUUAGGACUCUCUGCAUCAGCCUUGUGUGCAUCAGGCACUGGAAAGCCUCUGUCUUCCCAGCCCUUGCCUCUCCAGGAAACUCCACAGGCCUCCAGAGAAUUGGAAUUCUCGGGUGCCAA", "RBNS enrichment (R)": 0.734}
{"Oligonucleotide": "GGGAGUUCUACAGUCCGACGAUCACACGUUUUAUUCUACUCAUAGUGAGCUUAUUCUUAUUUUGGAUUGAUUUUCCAAAACCACAGCUUCAGCAGCAACAAUCAGAAUGUCCAAAUGCUGUCCUUUCCCUUACUGGAAUUCUCGGGUGCCAA", "RBNS enrichment (R)": 0.311}
{"Oligonucleotide": "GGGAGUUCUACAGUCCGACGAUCCCUAGAGGAGCGGAGUUUUCCGAGAGGACCAUCUCCUGGUUUCCUGAAGGAGGUGGGUGGAAACGGCUCUUGUUUGAAAGAACUUAGGGAGGACCAUUGGCUUGCCAAGAUGGAAUUCUCGGGUGCCAA", "RBNS enrichment (R)": 0.538}
{"Oligonucleotide": "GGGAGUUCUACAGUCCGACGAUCGUUUUGCAAAGAUUCAGAGAACUAAUUUUUCACUGGAUAAGACCUGAGUAACCCAGACCCCCCACCGUGGUUCUUUUCACAGCCCUCGACUUUGCACUUAAAAAGGGAUAUGGAAUUCUCGGGUGCCAA", "RBNS enrichment (R)": 0.498}
{"Oligonucleotide": "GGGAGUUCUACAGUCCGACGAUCAUGAAGUACGGAACUGGGAACUGGGGUCGUUGUUGACUAAUUGGUCCUAAGAGGAUAAAUUAUGUAACUGAUUUGCCCAGCUGAAUCAGGACUGCAAAUGCCAGGCUUUCUGGAAUUCUCGGGUGCCAA", "RBNS enrichment (R)": 0.361}
{"Oligonucleotide": "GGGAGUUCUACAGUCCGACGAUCUACUUUUCUGUAUUCCCAAGGAAUGCCUUCCUGUCUUAUUUUAGCCAAAACAAACUGGUUCCAUGCCUUCCUUGCAGUGAACGUUACAAUGGAUGUGGUUGUCAAUGUGAUGGAAUUCUCGGGUGCCAA", "RBNS enrichment (R)": 0.329}
{"data": "Set 3", "target": "CCNA1, cyclin fold, Cln2 fusion (human)", "technique": "yeast growth competition, sequencing", "matrix": "yeast", "setting": "weak parent motif", "baseline": "not given", "reading": "higher = stronger binding", "starting sequence": "CDKN1B docking peptide (human); PSACRNLFGPVDH"}
{"Change": "PSASRNLFGPVDH [C4S]", "normalised enrichment score": 0.278}
{"Change": "PMACRNLFGPVDH [S2M]", "normalised enrichment score": 0.109}
{"Change": "PSACRNLFGFVDH [P10F]", "normalised enrichment score": 0.323}
{"Change": "PSACRNLFGPPDH [V11P]", "normalised enrichment score": 0.303}
{"Change": "PSACRNLFGPVYH [D12Y]", "normalised enrichment score": 0.332}
{"Change": "PSACRNLFQPVDH [G9Q]", "normalised enrichment score": 0.418}
{"Change": "PSACRNLFGPVWH [D12W]", "normalised enrichment score": 0.477}
{"Change": "PSACRNLFWPVDH [G9W]", "normalised enrichment score": 0.293}
{"Change": "PSACRNLFGLVDH [P10L]", "normalised enrichment score": 0.437}
{"Change": "PSACRNLFRPVDH [G9R]", "normalised enrichment score": -0.0166}
{"Change": "PSACRNLFCPVDH [G9C]", "normalised enrichment score": 0.125}
{"Change": "PSVCRNLFGPVDH [A3V]", "normalised enrichment score": 0.501}
{"Change": "PSACRNYFGPVDH [L7Y]", "normalised enrichment score": 0.277}
{"Change": "PSGCRNLFGPVDH [A3G]", "normalised enrichment score": 0.241}
{"data": "Set 4", "target": "ABI1, truncated, D143A, DHFR fusion (Arabidopsis thaliana)", "technique": "DHFR PCA, deep sequencing", "matrix": "yeast", "setting": "methotrexate growth selection, single substitutions", "added": "(+)-ABA 17 µM", "baseline": "wild-type fitted maximum", "reading": "higher = stronger binding", "starting sequence": "PYL1, truncated, DHFR fusion (Arabidopsis thaliana); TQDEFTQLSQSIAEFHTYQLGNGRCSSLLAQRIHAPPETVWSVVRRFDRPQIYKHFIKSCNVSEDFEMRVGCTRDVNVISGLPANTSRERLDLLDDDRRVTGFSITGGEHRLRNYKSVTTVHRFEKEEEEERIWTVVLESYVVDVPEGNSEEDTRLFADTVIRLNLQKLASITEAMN; partner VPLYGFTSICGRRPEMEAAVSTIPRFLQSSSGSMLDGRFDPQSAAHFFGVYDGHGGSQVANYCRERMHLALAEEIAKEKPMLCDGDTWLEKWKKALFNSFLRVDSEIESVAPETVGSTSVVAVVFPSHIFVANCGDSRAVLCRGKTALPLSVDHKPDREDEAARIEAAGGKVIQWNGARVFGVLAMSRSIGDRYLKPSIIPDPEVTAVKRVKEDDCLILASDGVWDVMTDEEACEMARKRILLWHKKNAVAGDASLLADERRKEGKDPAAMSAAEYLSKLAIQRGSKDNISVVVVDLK"}
{"Change": "G71N", "relative binding score [%]": 34.6}
{"Change": "L156W", "relative binding score [%]": 69.2}
{"Change": "D3W", "relative binding score [%]": 80.1}
{"Change": "P146F", "relative binding score [%]": -12.6}
{"Change": "A30L", "relative binding score [%]": 81}
{"Change": "T120E", "relative binding score [%]": -6.93}
{"Change": "A35L", "relative binding score [%]": -14}
{"Change": "V40K", "relative binding score [%]": -36.1}
{"Change": "L112V", "relative binding score [%]": 5.71}
{"Change": "V161K", "relative binding score [%]": 0.173}
{"Change": "G21I", "relative binding score [%]": 78.1}
{"Change": "V62Y", "relative binding score [%]": 35.4}
{"Change": "E147C", "relative binding score [%]": 70.8}
{"Change": "E130H", "relative binding score [%]": 87.8}
{"Change": "R99D", "relative binding score [%]": -24}
{"Change": "R24T", "relative binding score [%]": 79.4}
{"Change": "V70M", "relative binding score [%]": 45.1}
{"Change": "A35G", "relative binding score [%]": 28.3}
{"note": "A few entries again (set 3):"}
{"Change": "PSVCRNLFGPVDH [A3V]", "normalised enrichment score": 0.501}
{"Change": "PSACRNLFGPVYH [D12Y]", "normalised enrichment score": 0.332}
{"Change": "PSACRNLFGPVWH [D12W]", "normalised enrichment score": 0.477}
{"Change": "PSGCRNLFGPVDH [A3G]", "normalised enrichment score": 0.241}
